Measured values of several laboratories.
“And” joins repeats or separate records; there may be more than shown. Numbers after ± are the reported error.
Nuclear receptor subfamily 2 group C member 2 ligand-binding domain: Nuclear receptor subfamily 2 group C member 2, ligand-binding domain (Homo sapiens, UniProt P49116)
Chain of UniProt P49116 (whole entry, looked up): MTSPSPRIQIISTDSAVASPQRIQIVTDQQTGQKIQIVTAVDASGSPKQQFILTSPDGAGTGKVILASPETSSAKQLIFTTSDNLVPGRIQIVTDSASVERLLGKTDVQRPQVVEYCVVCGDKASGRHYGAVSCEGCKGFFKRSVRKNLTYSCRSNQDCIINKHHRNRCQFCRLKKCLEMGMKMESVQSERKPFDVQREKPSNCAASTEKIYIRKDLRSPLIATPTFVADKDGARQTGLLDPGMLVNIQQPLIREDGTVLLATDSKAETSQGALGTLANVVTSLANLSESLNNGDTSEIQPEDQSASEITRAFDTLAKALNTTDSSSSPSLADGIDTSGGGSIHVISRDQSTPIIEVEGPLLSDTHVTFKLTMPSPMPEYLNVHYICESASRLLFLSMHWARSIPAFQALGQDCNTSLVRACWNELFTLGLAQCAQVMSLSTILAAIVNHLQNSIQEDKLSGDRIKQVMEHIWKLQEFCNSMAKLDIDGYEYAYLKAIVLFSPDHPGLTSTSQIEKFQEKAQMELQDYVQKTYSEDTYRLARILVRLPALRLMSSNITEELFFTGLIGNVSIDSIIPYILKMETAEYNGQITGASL

SMILES | target or system | assay | system | setting | how to read | quantity | value
CNCc1ccc(-c2[nH]c3cc(F)cc4c3c2CCNC4=O)cc1 | – | – | patients | oral, 840 mg twice daily, all grades | – | abdominal distension incidence | 0%
Cc1cc(C)c(CNC(=O)c2cc(Cl)c3c(c2C)O[C@@](C)([C@H]2CC[C@H](N(C)C)CC2)O3)c(=O)[nH]1 | – | – | human relapsed/refractory NHL | oral, 200 mg once daily, onset day 1 to 14 | – | back pain grade ≥3 | 0%
C[C@@H](N)C1CCN(S(=O)(=O)c2cccc3cnccc23)CC1 | – | – | healthy volunteers, fasted, plasma | oral, 250 mg | – | duration of quantifiable plasma levels | ≤ 8 h
CCO[C@H]1CCN(Cc2c(OC)cc(C)c3[nH]ccc23)[C@H](c2ccc(C(=O)O)cc2)C1 | – | – | PNH patients, active haemolysis | oral, 200 mg, 8 weeks, treatment | – | incidence of dry throat | 0%
Cn1c(=O)[nH]c2ncn(C)c2c1=O | – | – | human, both sexes, cerebrospinal fluid | – | – | samples above LOQ | 0%
FC(F)(F)c1ccc(CNc2ccc(Cc3c[nH]c4ncc(Cl)cc34)cn2)cn1 | – | measured: decreased appetite | patients with advanced solid tumours | oral, dose not given, grade 3 and 4, possibly related to drug | – | adverse event incidence | 0%
O=C(O)CCc1nc(-c2ccccc2)c(-c2ccccc2)o1 | COS-7 | – | – | 100 µM, 24 h, 0.1% DMSO, unit not given | baseline: control | apoptosis | 0.76 ± 0.12
O=C1CCC(N2Cc3cc(CO)c(F)cc3C2=O)C(=O)N1 (stereo not drawn) | – | – | cynomolgus monkey, male | oral, 0.3 mg/kg parent drug, 0.25 h | – | plasma concentration | 0.3 ng/mL
O=C(Nc1nc2cccc(-c3ccc(CN4CCS(=O)(=O)CC4)cc3)n2n1)C1CC1 | – | measured: infections and infestations | human rheumatoid arthritis patients | oral, 200 mg once daily, 4 weeks, regardless of relatedness | – | treatment-emergent adverse events | 0%
Cc1c2oc3c(C)ccc(C(=O)N[C@@H]4C(=O)N[C@H](C(C)C)C(=O)N5CCC[C@H]5C(=O)N(C)CC(=O)N(C)[C@@H](C(C)C)C(=O)O[C@@H]4C)c3nc-2c(C(=O)N[C@@H]2C(=O)N[C@H](C(C)C)C(=O)N3CCC[C@H]3C(=O)N(C)CC(=O)N(C)[C@@H](C(C)C)C(=O)O[C@@H]2C)c(N)c1=O | – | – | children with cancer, plasma | dose not given, 30 min | – | median plasma concentration | 9.8 µg/L
Cc1noc(C)c1-c1cc(C(O)(c2ccccn2)c2ccccn2)c2nc(C3CC3)[nH]c2c1 | – | – | human male, fasted, plasma | oral, 2 mg once daily, cycle 1 day 8 | – | AUCtau | 4260 ng·h/mL
N#Cc1ccc2c(c1)[C@H]1CCCN(C(=O)c3ccc4[nH]cnc4c3)[C@H]1C2 | – | – | human, female | 160 mg, day 15 | – | DHEA-S level | 4.8 µmol/L
CCn1cc(C(=O)O)c(=O)c2cc(F)c(N3CCNCC3)cc21 | – | starch gel membrane permeability | Gram-negative envelope surrogate | 200 µM, 10 min, pH 7.4 | – | amount permeated | 0.92 nmol
O=C1NC(=O)C(c2ccccc2)(c2ccccc2)N1 | – | – | Sprague-Dawley rat, serum | po, 40 mg/kg, 6 h | – | AST/ALT ratio | 1.91
CCCc1cc(C)[nH]c(=O)c1CNC(=O)c1cc(-c2ccnc(N3CCN(C)CC3)c2)cc2c1cnn2C(C)C | OCI-Ly1 | – | – | 1 µM, 120 h | – | viability | 86.1%
Cc1nc2ccc(OCc3ccc(C(F)(F)F)cc3)cc2[nH]1 | – | – | male Balb/c mice, liver | oral, 10 mg/kg, 72 h | baseline: tissue over plasma | tissue/plasma ratio | 6 ± 1.6
Cl.[2H]C([2H])([2H])CC(=O)c1cnc(NC(=O)C2CC2)cc1Nc1cccc(-c2ncn(C([2H])([2H])[2H])n2)c1OC | – | – | human, fasted, plasma | oral, 25 mg, single dose, liquid formulation | – | elimination rate constant | 2.53e-05 s⁻¹
CCc1cc(C(=O)NC)c2nccc(N3CCc4c(cc(Cn5ccnc5)cc4-c4cn(C)nc4C(F)(F)F)C3=O)c2c1 | – | – | Sprague Dawley rat, male, plasma | oral, 100 mg/kg single dose, day 1, toxicokinetic satellite group | – | AUC extrapolated fraction | 0.9%
CC(C)n1c(/C=C/C(O)CC(O)CC(=O)O)c(-c2ccc(F)cc2)c2ccccc21 (stereo not drawn) | COS-7 | – | – | 10 µM, 24 h, 0.1% DMSO, unit not given | baseline: vehicle control | apoptotic cells | 2.39 ± 0.43
CC(C)=CCc1cc2c(cc1O)O[C@H](c1ccc(O)cc1)CC2=O | – | – | liver microsomes | seven species incl. human | – | species difference in glucuronidation CLint | ~20.1 fold
CCCCCCOC(=O)NC(=N)c1ccc(NCc2nc3cc(C(=O)N(CCC(=O)OCC)c4ccccn4)ccc3n2C)cc1 | – | measured: Nausea | human | oral, 75 mg, alone | – | participants with adverse event | 4.2%
O=C1[C@H](CC[C@H](O)c2ccc(F)cc2)[C@@H](c2ccc(O)cc2)N1c1ccc(F)cc1 | Nuclear receptor subfamily 2 group C member 2 ligand-binding domain | SPR imaging | – | – | – | Kd | 536 nM
COc1ccc2c(=O)n(C)c(-c3ccccc3)nc2c1 | – | – | Sprague-Dawley rat, heart | oral, 30 mg/kg, 4 h | – | tissue concentration | not detected
Cc1cccc(C)c1OCC(=O)N[C@@H](Cc1ccccc1)[C@@H](O)C[C@H](Cc1ccccc1)NC(=O)[C@H](C(C)C)N1CCCNC1=O | – | – | Macaca nemestrina, plasma | intravenous, time-averaged | – | minimum DcNP-associated fraction | > 87%
CCCn1cc(C)c2c(=O)[nH]c(-c3cc(S(=O)(=O)N4CCN(CC)CC4)ccc3OCC)nc21 | – | – | human | concentration not given | – | number of TEAEs | 50
Cc1nc(-c2cnc(NC(C)C)n(C)c2=O)ccc1Oc1ccnc(-c2cnn(C)c2)c1 | – | – | Beagle dog, male, plasma | oral, 30 mg/kg, crossover study, mean | – | oral bioavailability | 24.1%

SMILES | target or system | assay | system | setting | how to read | quantity | value
Cc1nc2cccc(OCC(C)(C)C(=O)NC(C)C)c2c(N)c1C(=O)O | – | – | Sprague-Dawley rat, plasma | oral, 10 mg/kg, day 7 | baseline: female over male | AUC(0-last) ratio | 1.23 ± 1
Cn1cc(Nc2nc(N)nc(-c3cccc(-n4ccc5cc(C6CC6)cc(F)c5c4=O)c3CO)n2)cn1 | – | – | healthy humans, fed | oral tablet, 150 mg twice daily (multiple dose), 14 (unit not given) | baseline: subjects | drug-related nausea incidence | 0%
O=C(O)Cc1cccc(O)c1 | – | – | human plasma | mean | – | plasma concentration | 16800 nM
CC(C)(C(=O)N1CCOc2c(C#N)cncc2C1)C(F)F | – | – | human, both sexes | oral, 40 mg single dose | – | subjects with fatigue TEAE | 0%
CC(C)[C@H](N)C(=O)NCCCS(=O)(=O)O | – | – | human both sexes, plasma | oral, 256.5 mg once daily, day 1, fasted capsule | – | AUC(0-24) | 9840 ng·h/mL
CCN1/C(=C/C(C)=O)Sc2ccc(F)cc21 | – | – | cynomolgus monkey | oral, 10 mg/kg, 1 h post-dose | baseline: pre-dose | systolic blood pressure change | 102 ± 7.9%
COc1cc(C(=O)O)cc(OC)c1O | – | – | human plasma | mean, both sexes | – | plasma concentration | 5210 nM
NC1(C(=O)N[C@@H](CCO)c2ccc(Cl)cc2)CCN(c2nc[nH]c3nccc2-3)CC1 | – | – | metastatic CRPC patients | 400 mg b.i.d., any grade, treatment-related, with: enzalutamide 160 mg daily | – | incidence of SIRS | 0%
O=C(O)/C=C/c1ccc(O)c(O[C@@H]2O[C@H](C(=O)O)[C@@H](O)[C@H](O)[C@H]2O)c1 | – | – | human plasma | median | – | plasma concentration | 13.6 nM
C[C@@H]1CCO[C@H]2Cn3cc(C(=O)NCc4ccc(F)cc4F)c(=O)c(O)c3C(=O)N12 | – | – | human paediatric patients, weight 6 to under sample A kg, plasma | oral, 8 mg granules, steady state, geometric mean, population PK post-hoc, N 2 | – | AUC(0-24) | 34100 ng·h/mL
COc1ccccc1OCC(O)COC(N)=O (stereo not drawn) | Nuclear receptor subfamily 2 group C member 2 ligand-binding domain | SPR imaging | – | – | – | Kd | 0.0959 nM
CC(C)C[C@H](NC(=O)[C@@H](Cc1c[nH]c2ccccc12)NC(=O)[C@H](Cc1ccc(O)cc1)NC(=O)[C@H](CO)NC(=O)[C@H](Cc1c[nH]c2ccccc12)NC(=O)[C@H](Cc1c[nH]cn1)NC(=O)[C@@H]1CCC(=O)N1)C(=O)N[C@@H](CCCNC(=N)N)C(=O)N1CCC[C@H]1C(=O)NCC(N)=O | – | – | Chinese CPP children | intramuscular, 22.5 mg, 12 months, day 1, month 6 | – | patients, drug-related Overweight TEAEs | 1.5%
CC[C@H](C)CCCCC(=O)N[C@@H](CCN)C(=O)N[C@H](C(=O)N[C@@H](CCN)C(=O)N[C@H]1CCNC(=O)[C@H]([C@@H](C)O)NC(=O)[C@H](CCN)NC(=O)[C@H](CCN)NC(=O)[C@H](CC(C)C)NC(=O)[C@@H](Cc2ccccc2)NC(=O)[C@H](CCN)NC1=O)[C@@H](C)O | – | – | mild renal impairment, plasma | intravenous infusion, 0.75 mg/kg single dose over 1 h, arithmetic mean | – | AUC(0-last) | 20000 ng·h/mL
Cc1ccc(C(=O)N(CCCN)C(c2nc3snc(C)c3c(=O)n2Cc2ccccc2)C(C)C)cc1 (stereo not drawn) | – | – | human patients | intravenous, 4 mg/day | – | patients with CTCAE grade ≥3 events | 0%
CCN(c1cc(-c2ccc(CN3CCOCC3)cc2)cc(C(=O)NCc2c(C)cc(C)[nH]c2=O)c1C)C1CCOCC1 | – | – | NOD/SCID mouse xenograft, blood | 100 mg/kg, 12 d, with: bortezomib 1 and co-treatment | – | hemoglobin | 153 g/L and 150 g/L and 148 g/L and 160 g/L and 154 g/L
COc1ccc2nc([S+]([O-])Cc3ncc(CO)c(OC)c3C)[nH]c2c1 (stereo not drawn) | – | – | human, dried plasma spots | 2 h, with: fluvoxamine and voriconazole | – | R/S enantiomer ratio | 3.37
O=C(O)CCC(=O)O.[2H]C([2H])([2H])Oc1cc(C)c2[nH]ccc2c1CN1CC[C@@H](C2CC2)C[C@H]1c1ccc(C(=O)O)cc1 | – | – | healthy Chinese subjects | 400 mg, single ascending dose | – | TEAE decreased white cells | 0%
CC(Oc1ccc(O)cc1)C(=O)O (stereo not drawn) | – | – | human plasma | median | – | plasma concentration | 342 nM
CCOc1c([C@H](C)n2nc(C)c3c(N)ncnc32)cc(Cl)c(F)c1[C@@H]1CNC(=O)C1 | – | – | patients, monotherapy | oral, 5 mg once daily, cycle 1 day 15 | – | Cmax | 690 nM
Cc1ccc([C@@H]2O[C@H](CO)[C@@H](O)[C@H](O)[C@H]2O)cc1Cc1ccc(-c2ccc(F)cc2)s1 | – | – | Japanese type 2 diabetes patients | 100 mg, day 15, 24 h urine collection | baseline: baseline | urinary calcium excretion change | -0.456 mg
O=C(COc1ccc(Cl)cc1)NC12CC(c3nnc([C@H]4C[C@@H](OC(F)(F)F)C4)o3)(C1)C2 | – | – | human both sexes | oral, 260 mg once daily, 14 days | – | drug-related TEAE participants | 85.7%
Nc1nc(=S)c2[nH]cnc2[nH]1 | OCI-Ly1 | – | – | 1 µM, 120 h | – | viability | 8.55%
CNC(=O)c1ccc(-c2cnc3ncc(Cc4ccc5ncccc5c4)n3n2)cc1F | – | – | Japanese patients | oral, 400 mg, grade 3/4 | – | Malaise dose reduction/interruption | 1%
COc1cc(C=CC(=O)O)ccc1OS(=O)(=O)O | – | – | human plasma | mean | – | plasma concentration | 1270 nM
C[C@@H]1CN(c2c(F)c(N)c3c(=O)c(C(=O)O)cn(C4CC4)c3c2F)C[C@H](C)N1 | – | starch gel membrane permeability | Gram-negative envelope surrogate | 200 µM, 10 min, pH 7.4 | – | amount permeated | 0.32 nmol
